Experimental data from different studies.
Compare with care: the assays were run in different laboratories. Numbers after ± are the reported error.
B1: enzyme A172S/A173G/C179K/M174T/Q178P (Streptomyces platensis, UniProt A0A0A0V031); chain MQHTTIGDVLREHRRSHPGRTALVDGPVRLTWPELDDRVNRLAGSLAASGIGRGDRIMWLGQNSFRVYELIAAAGKLGAMVCVGYWRWAPPEMEFALRDFDPHLVVWQHQEIHETVARTREALGSDDTARWLRHDSAPQDPDGYEAFLAAGGLADPDLDIDPDSPVLVLYTSGTSGRPKGSLLSHTNLIAMATAAAWLGDIDHTTAFLNSGPMFHIGNHQFWGMPTLLMAGKNVIVRRVVAEEVRDLLVAEECTHAFLMPPTVAEIVRLNRDTGHDLSRLRATVAPHLWEGMATTDTSRFTRSGAAAGRGYGQTELSGFAVTAAYGGPAAGNAGRPGPGLTVRVLDTAGRECAVGEAGEICARGTVVHRGYWNRDEVNAHRFRSGWWHTTDLGRREPDGSLTFLGTTTRMLKSAAENIFPAEVENCIEQHPAVREAAVIGVPNTRWAQDVKAVVVLEPDAGVSEQEIIDHCRPRIASYKKPKSVAFAAALPRTVSGARDYDALDKEYGGGGYPGAATLGPGR
B2: enzyme A497K (Streptomyces platensis, UniProt A0A0A0V031); chain MQHTTIGDVLREHRRSHPGRTALVDGPVRLTWPELDDRVNRLAGSLAASGIGRGDRIMWLGQNSFRVYELIAAAGKLGAMVCVGYWRWAPPEMEFALRDFDPHLVVWQHQEIHETVARTREALGSDDTARWLRHDSAPQDPDGYEAFLAAGGLADPDLDIDPDSPVLVLYTAAMSGRQCGSLLSHTNLIAMATAAAWLGDIDHTTAFLNSGPMFHIGNHQFWGMPTLLMAGKNVIVRRVVAEEVRDLLVAEECTHAFLMPPTVAEIVRLNRDTGHDLSRLRATVAPHLWEGMATTDTSRFTRSGAAAGRGYGQTELSGFAVTAAYGGPAAGNAGRPGPGLTVRVLDTAGRECAVGEAGEICARGTVVHRGYWNRDEVNAHRFRSGWWHTTDLGRREPDGSLTFLGTTTRMLKSAAENIFPAEVENCIEQHPAVREAAVIGVPNTRWAQDVKAVVVLEPDAGVSEQEIIDHCRPRIASYKKPKSVAFAAALPRTVSGKRDYDALDKEYGGGGYPGAATLGPGR
B3: dmaW (Aspergillus fumigatus, UniProt Q50EL0); chain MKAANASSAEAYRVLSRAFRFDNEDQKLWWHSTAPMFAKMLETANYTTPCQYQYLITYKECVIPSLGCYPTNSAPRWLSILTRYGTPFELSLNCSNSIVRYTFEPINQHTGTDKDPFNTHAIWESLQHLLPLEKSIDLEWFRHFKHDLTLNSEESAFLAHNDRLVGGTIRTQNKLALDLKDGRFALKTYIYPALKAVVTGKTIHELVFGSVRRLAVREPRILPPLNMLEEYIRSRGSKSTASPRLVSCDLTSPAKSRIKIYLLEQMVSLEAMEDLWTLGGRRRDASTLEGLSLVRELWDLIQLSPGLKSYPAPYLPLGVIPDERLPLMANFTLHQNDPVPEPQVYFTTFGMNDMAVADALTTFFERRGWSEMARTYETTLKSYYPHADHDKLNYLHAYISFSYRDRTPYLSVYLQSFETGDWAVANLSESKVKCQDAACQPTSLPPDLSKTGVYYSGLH
Chain of UniProt P00488 (whole entry, looked up): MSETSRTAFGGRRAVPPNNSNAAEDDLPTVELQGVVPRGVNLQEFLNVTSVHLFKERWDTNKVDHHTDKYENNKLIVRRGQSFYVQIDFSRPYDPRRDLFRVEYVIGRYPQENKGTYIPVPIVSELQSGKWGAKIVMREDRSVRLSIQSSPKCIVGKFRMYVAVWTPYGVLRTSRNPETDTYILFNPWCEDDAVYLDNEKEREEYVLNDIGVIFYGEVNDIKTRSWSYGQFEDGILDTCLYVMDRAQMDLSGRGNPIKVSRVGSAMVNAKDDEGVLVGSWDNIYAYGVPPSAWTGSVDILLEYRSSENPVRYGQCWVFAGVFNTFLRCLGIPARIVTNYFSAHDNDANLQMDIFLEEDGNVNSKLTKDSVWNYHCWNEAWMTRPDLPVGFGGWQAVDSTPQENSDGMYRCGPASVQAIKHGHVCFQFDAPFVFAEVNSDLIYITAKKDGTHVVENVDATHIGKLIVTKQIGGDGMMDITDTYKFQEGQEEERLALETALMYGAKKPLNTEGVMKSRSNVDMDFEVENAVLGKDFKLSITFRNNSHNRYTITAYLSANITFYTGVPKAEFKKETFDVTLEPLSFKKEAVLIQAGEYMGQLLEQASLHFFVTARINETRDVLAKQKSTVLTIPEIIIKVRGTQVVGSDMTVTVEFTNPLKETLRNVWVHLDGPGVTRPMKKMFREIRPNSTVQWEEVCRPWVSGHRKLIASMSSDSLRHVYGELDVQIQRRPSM
Chain of UniProt P21729 (whole entry, looked up): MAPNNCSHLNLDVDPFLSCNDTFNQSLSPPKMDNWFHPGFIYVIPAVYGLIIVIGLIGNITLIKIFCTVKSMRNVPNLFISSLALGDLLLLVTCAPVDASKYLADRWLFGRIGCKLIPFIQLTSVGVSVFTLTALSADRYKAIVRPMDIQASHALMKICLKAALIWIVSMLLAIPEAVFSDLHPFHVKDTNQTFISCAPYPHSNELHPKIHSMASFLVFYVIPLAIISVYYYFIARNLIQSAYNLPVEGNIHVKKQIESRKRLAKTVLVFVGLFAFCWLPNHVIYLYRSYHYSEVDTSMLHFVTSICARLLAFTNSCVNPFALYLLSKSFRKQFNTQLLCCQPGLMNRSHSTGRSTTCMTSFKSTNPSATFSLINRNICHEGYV

With `CCCNC(=O)[C@H](CC(C)C)NC(=O)[C@H](Cc1c[nH]cn1)NC(=O)CNC(=O)[C@@H](NC(=O)[C@H](C)NC(=O)[C@H](Cc1c[nH]c2ccccc12)NC(=O)[C@H](CCC(N)=O)NC(=O)[C@@H](Cc1ccccc1)NC(=O)CCCCCNC(=O)CN1CCN(CC(=O)O)CCN(CC(=O)O)CCN(CC(=O)O)CC1)C(C)C` [indium-111 labelled] the tissue uptake was 0.07 ± 0.01 %ID/g (Gastrin-releasing peptide receptor (Mus musculus, UniProt P21729); biodistribution; CF-1 mice, bone; intravenous, 1 h, unblocked).
The tissue uptake of `N=C(N)NCCC[C@@H]1NC(=O)[C@H](CCCCNC(=O)CC[C@H](NC(=O)CCOCCOCCOCCOCCNC(=O)CN2CCN(CC(=O)O)CCN(CC(=O)O)CCN(CC(=O)O)CC2)C(=O)NCCCC[C@@H]2NC(=O)[C@@H](Cc3ccccc3)NC(=O)[C@H](CC(=O)O)NC(=O)CNC(=O)[C@H](CCCNC(=N)N)NC2=O)NC(=O)[C@@H](Cc2ccccc2)NC(=O)[C@H](CC(=O)O)NC(=O)CNC1=O` [indium-111 labelled] is reported as 1.75 ± 0.27 %ID/g (athymic nude mice, female, U-87 MG glioma xenograft, spleen; intravenous, 3 µCi, 4 h).
`B1` gave a kcat/Km of 1.7e+07 M⁻¹ s⁻¹ (C[C@@]12CCC[C@@](C)(C(=O)OP(=O)(O)OC[C@H]3O[C@@H](n4cnc5c(N)ncnc54)[C@H](O)[C@@H]3O)[C@H]1C[C@@H](O)[C@]13C[C@H]4C[C@H](O[C@@]4(C)C1)[C@@H]23; steady-state kinetics; pH 7.8, 25 °C).
`C[C@H](NC(=O)[C@H](CCC(N)=O)NC(=O)[C@H](CCCCN)NC(=O)[C@H](C)NC(=O)[C@@H]1CCCN1C(=O)[C@H](C)NC(=O)[C@H](CCCCN)NC(=O)[C@H](CCC(N)=O)NC(=O)[C@H](C)NC(=O)[C@H](CCCCN)NC(=O)[C@H](CCC(N)=O)NC(=O)[C@@H]1CCCN1C(=O)[C@H](CCC(N)=O)NC(=O)[C@H](CCCCN)NC(=O)[C@H](C)NC(=O)[C@H](CCC(N)=O)NC(=O)[C@H](CCCCN)NC(=O)[C@H](C)NC(=O)[C@@H]1CCCN1C(=O)[C@H](C)NC(=O)[C@H](CCCCN)NC(=O)[C@H](CCC(N)=O)NC(=O)[C@H](C)NC(=O)[C@H](CCCCN)NC(=O)[C@H](CO)NC(=O)[C@H](Cc1ccc(O)cc1)NC(=O)CNC(=O)CNC(=O)CN)C(=O)N[C@@H](CCCCN)C(=O)N[C@@H](CCC(N)=O)C(=O)O` has an Rmax of 31.5 RU (binding, SPR two-state model; rVλ6Wil fibrils; 300 nM).
`C[C@H]1COc2c(N3CCN(C)CC3)c(F)cc3c(=O)c(C(=O)N[C@@H](CCCNC(=N)N)C(=O)N[C@@H](Cc4ccc(-c5ccccc5)cc4)C(=O)N[C@@H](CCCNC(=N)N)C(=O)N[C@@H](Cc4ccc(-c5ccccc5)cc4)C(=O)N[C@@H](CCCNC(=N)N)C(N)=O)cn1c23` gave a hemolysis of 1.27 ± 0.014% (human erythrocytes; 50 µM, 1 h, 37 °C; reference: Triton X-100).
For `F13A1 (Homo sapiens, UniProt P00488)`, the kcat was 0.5 s⁻¹ (CC(C)C[C@H](NC(=O)[C@H](CC(C)C)NC(=O)[C@H](CO)NC(=O)[C@H](CC(C)C)NC(=O)[C@@H]1CCCN1C(=O)[C@H](CO)NC(=O)[C@@H](NC(=O)[C@H](CCC(N)=O)NC(=O)[C@H](CCC(=O)O)NC(=O)[C@@H](N)CCC(N)=O)C(C)C)C(=O)N[C@@H](CCCCN)C(=O)O; steady-state kinetics).
For `B2 (enzyme A497K)`, the kcat/Km was 1.6e+07 M⁻¹ s⁻¹ (C[C@@]12CCC[C@@](C)(C(=O)OP(=O)(O)OC[C@H]3O[C@@H](n4cnc5c(N)ncnc54)[C@H](O)[C@@H]3O)[C@H]1C[C@@H](O)[C@]13C[C@H]4C[C@H](O[C@@]4(C)C1)[C@@H]23; steady-state kinetics; pH 7.8, 25 °C).
For `CC(C)(C)n1cc(CN(Cc2cn(CCOCCOCCOCCOCCOCCOCCC(=O)N[C@@H](CCCNC(=N)N)C(=O)N[C@@H](CCCCN)C(=O)N[C@@H](CCCCN)C(=O)N[C@@H](CCCNC(=N)N)C(=O)N[C@@H](CCCNC(=N)N)C(=O)N[C@@H](CCC(N)=O)C(=O)N[C@@H](CCCNC(=N)N)C(=O)N[C@@H](CCCNC(=N)N)C(=O)N[C@@H](CCCNC(=N)N)C(N)=O)nn2)Cc2cn(C(C)(C)C)nn2)nn1`, the intracellular concentration was 32.9 ± 0.4 µM (HUVEC; cellular uptake, LC-ESI-MS/MS; 200 µM, 10 min, together with: CuSO4 100 µM and ascorbate 500 µM).
`CCCCCc1cc(O)c2c(c1)OC(C)(C)C1CCC(C)=CC21` (centres unmarked) has an intraocular pressure of 66.6% (rabbit, α-chymotrypsin glaucoma model; topical, 50 µL of 0.8% w/v, 1 h; reference: baseline).
For `N=C(N)NCCC[C@@H]1NC(=O)[C@H](CCCCNC(=O)CCOCCOCCOCCOCCNC(=O)CC[C@H](NC(=O)CCOCCOCCOCCOCCNC(=O)CC[C@H](NC(=O)CN2CCN(CC(=O)O)CCN(CC(=O)O)CCN(CC(=O)O)CC2)C(=O)NCCOCCOCCOCCOCCC(=O)N[C@@H](CCC(=O)NCCOCCOCCOCCOCCC(=O)NCCCC[C@@H]2NC(=O)[C@@H](Cc3ccccc3)NC(=O)[C@H](CC(=O)O)NC(=O)CNC(=O)[C@H](CCCNC(=N)N)NC2=O)C(=O)NCCOCCOCCOCCOCCC(=O)NCCCC[C@@H]2NC(=O)[C@@H](Cc3ccccc3)NC(=O)[C@H](CC(=O)O)NC(=O)CNC(=O)[C@H](CCCNC(=N)N)NC2=O)C(=O)NCCOCCOCCOCCOCCC(=O)NCCCC[C@@H]2NC(=O)[C@@H](Cc3ccccc3)NC(=O)[C@H](CC(=O)O)NC(=O)CNC(=O)[C@H](CCCNC(=N)N)NC2=O)NC(=O)[C@@H](Cc2ccccc2)NC(=O)[C@H](CC(=O)O)NC(=O)CNC1=O` [indium-111 labelled], “tumour to tissue ratio” read 10.9 ± 2.51 (athymic nude mice, female, U-87 MG glioma xenograft, tumour and muscle; intravenous, 1 h; reference: tumour over muscle).
`B3 (dmaW)` gave a kcat of 0.0217 ± 0.00167 s⁻¹ (C/C(Cl)=C/COP(=O)(O)OP(=O)(O)O; steady-state kinetics; pH 7.5, 35 °C).
With `C=Cc1c(C)c2cc3nc(c4c5[nH]c(cc6nc(cc1[nH]2)C(C)=C6CC)c(C)c5C(=O)C4)[C@@H](CCC(=O)NCC(=O)N1CCC[C@H]1C(=O)N[C@@H](CC(C)C)C(=O)NCC(=O)N[C@@H](Cc1ccccc1)C(=O)N[C@@H](CCCNC(=N)N)C(=O)N[C@H](C(=O)NCC(=O)N[C@@H](CCCCN)C(N)=O)C(C)C)[C@@H]3C` the fluorescent cells was 38 ± 2% (OA patient chondrocytes; flow cytometry, item: cellular uptake; 1 µM, 1 h).
`N=C(N)NCCC[C@@H]1NC(=O)[C@H](CCCCNC(=O)CNC(=O)CNC(=O)CNC(=O)CC[C@H](NC(=O)CCOCCOCCOCCOCCNC(=O)CC[C@H](NC(=O)CN2CCN(CC(=O)O)CCN(CC(=O)O)CCN(CC(=O)O)CC2)C(=O)NCCOCCOCCOCCOCCC(=O)N[C@@H](CCC(=O)NCC(=O)NCC(=O)NCC(=O)NCCCC[C@@H]2NC(=O)[C@@H](Cc3ccccc3)NC(=O)[C@H](CC(=O)O)NC(=O)CNC(=O)[C@H](CCCNC(=N)N)NC2=O)C(=O)NCC(=O)NCC(=O)NCC(=O)NCCCC[C@@H]2NC(=O)[C@@H](Cc3ccccc3)NC(=O)[C@H](CC(=O)O)NC(=O)CNC(=O)[C@H](CCCNC(=N)N)NC2=O)C(=O)NCC(=O)NCC(=O)NCC(=O)NCCCC[C@@H]2NC(=O)[C@@H](Cc3ccccc3)NC(=O)[C@H](CC(=O)O)NC(=O)CNC(=O)[C@H](CCCNC(=N)N)NC2=O)NC(=O)[C@@H](Cc2ccccc2)NC(=O)[C@H](CC(=O)O)NC(=O)CNC1=O` [indium-111 labelled] has a tissue uptake of 0.3 ± 0.16 %ID/g (female athymic nude mice, muscle; intravenous, 3 µCi, 24 h, U-87 MG glioma xenograft).
For `CN[C@](C)(C[18F])C(=O)O`, the tracer uptake was 1 %ID/g (DU-145 tumour model; host not given, muscle; 2 h, tumour-bearing).

For quick reference, copied from above:
`N=C(N)NCCC[C@@H]1NC(=O)[C@H](CCCCNC(=O)CNC(=O)CNC(=O)CNC(=O)CC[C@H](NC(=O)CCOCCOCCOCCOCCNC(=O)CC[C@H](NC(=O)CN2CCN(CC(=O)O)CCN(CC(=O)O)CCN(CC(=O)O)CC2)C(=O)NCCOCCOCCOCCOCCC(=O)N[C@@H](CCC(=O)NCC(=O)NCC(=O)NCC(=O)NCCCC[C@@H]2NC(=O)[C@@H](Cc3ccccc3)NC(=O)[C@H](CC(=O)O)NC(=O)CNC(=O)[C@H](CCCNC(=N)N)NC2=O)C(=O)NCC(=O)NCC(=O)NCC(=O)NCCCC[C@@H]2NC(=O)[C@@H](Cc3ccccc3)NC(=O)[C@H](CC(=O)O)NC(=O)CNC(=O)[C@H](CCCNC(=N)N)NC2=O)C(=O)NCC(=O)NCC(=O)NCC(=O)NCCCC[C@@H]2NC(=O)[C@@H](Cc3ccccc3)NC(=O)[C@H](CC(=O)O)NC(=O)CNC(=O)[C@H](CCCNC(=N)N)NC2=O)NC(=O)[C@@H](Cc2ccccc2)NC(=O)[C@H](CC(=O)O)NC(=O)CNC1=O` [indium-111 labelled] has a tissue uptake of 0.3 ± 0.16 %ID/g (female athymic nude mice, muscle; intravenous, 3 µCi, 24 h, U-87 MG glioma xenograft).
For `CN[C@](C)(C[18F])C(=O)O`, the tracer uptake was 1 %ID/g (DU-145 tumour model; host not given, muscle; 2 h, tumour-bearing).
